Published values pooled from the literature.
Lines come from different studies, so protocols differ. Numbers after ± are the reported error.

COc1cccc(OC)c1-c1cc(C(=O)NC2(C(=O)O)C3CC4CC(C3)CC2C4)nn1-c1ccc(C(=O)NCCNC(=O)[C@H](CCCCNC(=O)[C@H](CC(C)C)NC(=O)C2OC2C(=O)O)NC(=O)CN2CCN(CC(=O)[O-])CCN(CC(=O)[O-])CCN(CC(=O)[O-])CC2)cc1C(C)C.[177Lu+3] (mixture of isomers) — tissue uptake (mouse, HT-29 xenograft, kidney; 72 h post injection): 2.39 %ID/g
N#C[C@@H]1CC(F)(F)CN1C(=O)CNC(=O)c1ccnc2c(NC(=O)[C@@H](N)CCCCNC(=O)CCOCCOCCOCCOCCOCCOCCNC(=O)CN3CCN(CC(=O)[O-])CCN(CC(=O)[O-])CCN(CC(=O)[O-])CC3)cccc12.[177Lu+3] — tissue uptake (mouse, U-87 MG tumour xenograft, spleen; 24 h): 0.08 ± 0.01 %ID/g
O=C(NCC1OC2CCC=CCCC2O1)c1ccc(COCCOCCOCC[18F])cc1 (stereo not shown) — tissue uptake (healthy female BALB/c nude mice, brain; intravenous, 7.4 MBq per mouse, 120 min): 1.9 ± 0.1 %ID/g
O=C(c1ccc([C@H]2[C@@H](F)[C@@H](F)C[C@@H](F)[C@H]2F)cc1)N1CCC(F)CC1 — hepatic clearance (liver microsome stability; cynomolgus liver microsomes; 1 µM): 20 mL/min/kg
N#C[C@@H]1CC(F)(F)CN1C(=O)CNC(=O)c1ccnc2c(NC(=O)CCOCCOCCOCCOCCOCCOCCNC(=O)[C@H](CCCCNC(=O)CN3CCN(CC(=O)[O-])CCN(CC(=O)[O-])CCN(CC(=O)[O-])CC3)NC(=O)CCCc3ccc(I)cc3)cccc12.[177Lu+3] — tissue uptake (mouse, U-87 MG tumour xenograft, brain; 48 h): 0.01 ± 0.01 %ID/g
O=C(NCC1OC2CCC=CCCC2O1)c1ccc([18F])nc1 (stereo not shown) — tissue uptake (healthy female BALB/c nude mice, skin; intravenous, 7.4 MBq per mouse, 120 min): 0.6 ± 0.3 %ID/g
Cc1cc(C)n(CCN(CCN)CCCCCCNC(=O)[C@@H](N)Cc2c[nH]cn2)n1.[99Tc+].[C-]#[O+].[C-]#[O+].[C-]#[O+] — tissue uptake (BALB/c nude mice, MCF7 xenograft, tumor; intravenous, 4 h): 0.27 ± 0.06 %IA/g
[11CH3]N1CCC(NC(=O)c2cc(-c3c(O)cc(O)cc3Oc3ccc([N+](=O)[O-])cc3)on2)CC1 — tissue uptake (Wistar rat, female, healthy, blood; intravenous, 60 min): 2.6 ± 0.8 %ID
N#C[C@@H]1CC(F)(F)CN1C(=O)CNC(=O)c1ccnc2c(NC(=O)[C@H](CCCCNC(=O)CCOCCOCCOCCOCCOCCOCCNC(=O)CN3CCN(CC(=O)[O-])CCN(CC(=O)[O-])CCN(CC(=O)[O-])CC3)NC(=O)CCCc3ccc(I)cc3)cccc12.[177Lu+3] — tissue uptake (mouse, U-87 MG tumour xenograft, spleen; 1 h): 5.37 ± 2.4 %ID/g
O=C(c1ccc([C@H]2[C@@H](F)[C@@H](F)C[C@@H](F)[C@H]2F)cc1)N1CCCC1 — hepatic clearance (liver microsome stability; dog liver microsomes; 1 µM): 10 mL/min/kg
[123I]c1ccc2nc(-c3ccc(-n4ccnn4)nc3)cn2c1 — tissue uptake (male Wistar rat, large intestine; intravenous, 4 MBq, 1 h): 0.139 ± 0.032 %ID/g
COc1cccc(OC)c1-c1cc(C(=O)NC2(C(=O)O)C3CC4CC(C3)CC2C4)nn1-c1ccc(C(=O)N(C)CCOCCN(C)C(=O)[C@H](CCCCNC(=O)[C@H](CC(C)C)NC(=O)C2OC2C(=O)O)NC(=O)CN2CCN(CC(=O)[O-])CCN(CC(=O)[O-])CCN(CC(=O)[O-])CC2)cc1C(C)C.[177Lu+3] (mixture of isomers) — tissue uptake (mouse, HT-29 xenograft, liver; 72 h post injection): 0.69 %ID/g
CC(C)Cc1ccc(C(C)C(=O)N[C@@H](CCCCNC(=O)CCOCCOCCOCCOCCOCCOCCNC(=O)CN2CCN(CC(=O)[O-])CCN(CC(=O)[O-])CCN(CC(=O)[O-])CC2)C(=O)Nc2cccc3c(C(=O)NCC(=O)N4CC(F)(F)C[C@H]4C#N)ccnc23)cc1.[177Lu+3] (stereo partly shown) — tissue uptake (mouse, U-87 MG tumour xenograft, brain; 4 h): 0.3 ± 0.1 %ID/g
COc1cccc(OC)c1-c1cc(C(=O)NC2(C(=O)O)C3CC4CC(C3)CC2C4)nn1-c1ccc(C(=O)N(C)CCCN(C)CCCN(C)C(=O)[C@H](CCCCNC(=O)[C@H](CC(C)C)NC(=O)C2OC2C(=O)O)NC(=O)CN2CCN(CC(=O)[O-])CCN(CC(=O)[O-])CCN(CC(=O)[O-])CC2)cc1C(C)C.[177Lu+3] (mixture of isomers) — tissue uptake (mouse, HT-29 xenograft, lung; 168 h post injection): 0.9 %ID/g
CCCC[C@H](NC(=O)CCCCCCCNC(=O)CN1CCN(CC(=O)O)CCN(CC(=O)O)CC1)C(=O)N[C@H]1CC(=O)NCCCC[C@@H](C(N)=O)NC(=O)[C@H](Cc2c[nH]c3ccccc23)NC(=O)[C@H](CCCNC(=N)N)NC(=O)[C@@H](Cc2ccccc2)NC(=O)[C@H](Cc2c[nH]cn2)NC1=O [fluorine-18 labelled] — tissue uptake (C57 mice B16-F10 melanoma, muscle; intravenous, 0.37 MBq, 0.5 h): 0.68 ± 0.24 %ID/g
O=C(O)CCCOc1ccc([18F])cc1-c1cc(-c2ccccc2C(F)(F)F)n(-c2ccccc2)n1 — tissue uptake (mouse, muscle; intravenous, dose not given, 180 min): 2.74 ± 0.2 %ID/g

A few entries again:
CC(C)Cc1ccc(C(C)C(=O)N[C@@H](CCCCNC(=O)CCOCCOCCOCCOCCOCCOCCNC(=O)CN2CCN(CC(=O)[O-])CCN(CC(=O)[O-])CCN(CC(=O)[O-])CC2)C(=O)Nc2cccc3c(C(=O)NCC(=O)N4CC(F)(F)C[C@H]4C#N)ccnc23)cc1.[177Lu+3] (stereo partly shown) — tissue uptake (mouse, U-87 MG tumour xenograft, brain; 4 h): 0.3 ± 0.1 %ID/g
COc1cccc(OC)c1-c1cc(C(=O)NC2(C(=O)O)C3CC4CC(C3)CC2C4)nn1-c1ccc(C(=O)N(C)CCCN(C)CCCN(C)C(=O)[C@H](CCCCNC(=O)[C@H](CC(C)C)NC(=O)C2OC2C(=O)O)NC(=O)CN2CCN(CC(=O)[O-])CCN(CC(=O)[O-])CCN(CC(=O)[O-])CC2)cc1C(C)C.[177Lu+3] (mixture of isomers) — tissue uptake (mouse, HT-29 xenograft, lung; 168 h post injection): 0.9 %ID/g
CCCC[C@H](NC(=O)CCCCCCCNC(=O)CN1CCN(CC(=O)O)CCN(CC(=O)O)CC1)C(=O)N[C@H]1CC(=O)NCCCC[C@@H](C(N)=O)NC(=O)[C@H](Cc2c[nH]c3ccccc23)NC(=O)[C@H](CCCNC(=N)N)NC(=O)[C@@H](Cc2ccccc2)NC(=O)[C@H](Cc2c[nH]cn2)NC1=O [fluorine-18 labelled] — tissue uptake (C57 mice B16-F10 melanoma, muscle; intravenous, 0.37 MBq, 0.5 h): 0.68 ± 0.24 %ID/g
